Measured values of several laboratories.
Protocols differ between the studies behind these lines. “And” joins repeats or separate records; there may be more than shown.
Target: Tyrosine-protein kinase Fgr (FGR, Homo sapiens, UniProt P09769)

assay | conditions | scale | quantity | result | SMILES
binding, competition with immobilised ligand | 1 µM | – | remaining binding | 0.45% | CCN1CCN(Cc2ccc(NC(=O)c3ccc(C)c(NC(=O)c4cncc(-c5cccs5)c4)c3)cc2C(F)(F)F)CC1
enzyme activity, inhibitor, radiometric | 10 µM | – | inhibition | 71% | NC(=O)[C@@H](O)C[C@H]1CCc2sc3ncnc(O[C@H]4CC[C@H](N5CCOCC5)CC4)c3c21
cell-free assay, competition with immobilised ligand | 1 µM | – | remaining binding | 52% | Cc1ccc(-c2c(/C=C(\C#N)C(=O)NC(C)C)n(CCCO)c3ncnc(N)c23)cc1
kinase activity, inhibitor, ProQinase kinase profiling | 25 µM | relative to: control | remaining activity | 111% and 85% | COCC12C(=O)NC3C4(C(OC)CC1O)C1CC5(O)C(OC)C(O)C(OC(C)=O)(C1C5OC(=O)c1ccccc1)C3(O)C(OC)C24 (centres unmarked)
binding, competition with immobilised ligand | 1 µM | – | remaining binding | 97% | Nc1ncc2c(n1)-c1c([nH]c3ccc(C4=CCOCC4)cc13)CCC2
cell-free assay, competition with immobilised ligand | 10 µM | – | remaining binding | 88% | CC(C)=CC1OC(C)(C)C2C=C3C(=O)C(Cl)=CC(O)C3C3C(O)C4OC4C(=O)C132 (centres unmarked)
enzyme activity, inhibitor | 0.1 µM | – | inhibition | 4% | C=CC(=O)Nc1cccc(-c2cnc3[nH]cc(C(=O)NC(C)(C)C)c3n2)c1
enzyme activity | 1 µM | relative to: DMSO control | remaining activity | 83.3% | Nc1ncc(-c2cc(-c3cnn(CC(F)(F)F)c3)ncc2F)nc1C(=O)NC1CNCC(F)C1 (centres unmarked)
enzyme activity, inhibitor | 1 µM | – | activity vs control | 94% | CNC(=O)C[C@H](Cc1ccc(C#N)cc1)NC(=O)c1cc(-c2ccc(CN[C@H](C)c3ccc(C)cc3)o2)ccc1Cl
KINOMEscan | 1 µM | relative to: DMSO control | remaining binding | 100% | C=CC(=O)N1CCc2ccc(-n3c(=O)ccc4cnc5ccc(-c6cnn(C)c6)cc5c43)cc21
cell-free assay, inhibitor | 10 µM | – | inhibition | -10% | Cc1cccc(O[C@H]2CCC[C@@H](C(C)CNCc3ccncc3)C2)c1 (relative stereo)
cell-free assay, competition with immobilised ligand | 3 µM | – | remaining binding | 55% | COc1c(Cl)cccc1Nc1c(-c2ccncc2C#C[C@@]2(C)CCCN2C(=O)/C=C/CN(C)C)[nH]c2c1C(=O)NCC2
kinase activity, KinaseProfiler | 0.03 µM, species human | relative to: control | remaining activity | 102% | COc1ccc(NC(=O)Nc2ccc3c(c2)C(=O)N(C(C)CO)CC(C)C(CN(C)Cc2ccc4c(c2)OCO4)O3)cc1 (centres unmarked)
enzyme activity | 100 nM, human enzyme, added: 10 µM ATP | relative to: untreated | remaining activity | 81% | O=C=[N][Ru-4]123([n]4c5ccc(O)cc5c5c6c(c7cc(F)c[n+]1c7c54)C(=O)NC6=O)[S+]1CC[S+]2CC[S+]3CC1 (centres unmarked)

Repeated from above:
assay | conditions | scale | quantity | result | SMILES
binding, competition with immobilised ligand | 1 µM | – | remaining binding | 97% | Nc1ncc2c(n1)-c1c([nH]c3ccc(C4=CCOCC4)cc13)CCC2
